Assay results pooled from the literature.
Every numbered part comes from another study and shows a few of its results, in no order. Changes are numbered by the printed parent chain.

Study 1
Target: UBE2D2 UBC core domain (UniProt P62837)
Chain of UniProt P62837 (whole entry, looked up): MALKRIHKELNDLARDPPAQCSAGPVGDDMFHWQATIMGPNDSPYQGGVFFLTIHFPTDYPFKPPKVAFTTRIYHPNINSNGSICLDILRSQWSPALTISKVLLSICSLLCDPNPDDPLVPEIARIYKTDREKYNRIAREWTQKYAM
Technique: yeast two-hybrid
Medium: yeast
Notes: mostly zero background
Relative to: not given
Direction: higher = stronger interaction
B1: MARCHF2 RING domain (UniProt Q9P0N8); chain RLLSTVIRALDTPSDGPFCRICHEGANGECLLSPCGCTGTLGAVHKSCLEKWLSSSNTSYCELCHTEFAVEKRPRPLTEWL
B2: SHPRH RING domain (UniProt Q149N8); chain KTSGGVNPEPCPICARQLGKQWAVLTCGHCFCNECISIIIEQYSVGSHRSSIKCAICRQTTSHKEISY
B3: RFPL3 RING domain (UniProt O75679); chain MAALFQEASSCPVCSDYLEKPMSLECGCTVCLKCINSLQKEPHGEDLLCCCCSMVSQRNKIRP
B4: ARIH1 RING domain (UniProt Q9Y4X5); chain NTRSSAQDMPCQICYLNYPNSYFTGLECGHKFCMQCWSEYLTTKIMEEGMGQTISCPAHGCDILVDDNTVM
B5: PJA2 RING domain (UniProt O43164); chain DHTAIGQEQCCPICCSEYIKDDIATELPCHHFFHKPCVSIWLQKSGTCPVCRRHFPPAVIEA
B6: TRIM68 RING domain (UniProt Q6AZZ1); chain LVEAIVEEVACPICMTFLREPMSIDCGHSFCHSCLSGLWEIPGESQNWGYTCPLCRAPVQPRNLRP
Sequence | lacZ reporter activity
B1 (MARCHF2 RING domain) | 0
B2 (SHPRH RING domain) | 0
B3 (RFPL3 RING domain) | 0
SNNDLASLFECPVCFDYVLPPILQCQSGHLVCSNCRPKLTCCPTCRGPLGSIRNLA (SIAH1 RING domain (UniProt Q8IUQ4)) | 2140
B4 (ARIH1 RING domain) | 0
EDVLSKDAGECAICLEELQQGDTIARLPCLCIYHKGCIDEWFEVNRSCPEHPSD (ZNRF2 RING domain (UniProt Q8NHG8)) | 15600
B5 (PJA2 RING domain) | 2180
B6 (TRIM68 RING domain) | 0

Study 2
Target: Ras GTPase-activating protein-binding protein 1, C-terminal RGG region (G3BP1, Homo sapiens, UniProt Q13283)
Chain of UniProt Q13283 (whole entry, looked up): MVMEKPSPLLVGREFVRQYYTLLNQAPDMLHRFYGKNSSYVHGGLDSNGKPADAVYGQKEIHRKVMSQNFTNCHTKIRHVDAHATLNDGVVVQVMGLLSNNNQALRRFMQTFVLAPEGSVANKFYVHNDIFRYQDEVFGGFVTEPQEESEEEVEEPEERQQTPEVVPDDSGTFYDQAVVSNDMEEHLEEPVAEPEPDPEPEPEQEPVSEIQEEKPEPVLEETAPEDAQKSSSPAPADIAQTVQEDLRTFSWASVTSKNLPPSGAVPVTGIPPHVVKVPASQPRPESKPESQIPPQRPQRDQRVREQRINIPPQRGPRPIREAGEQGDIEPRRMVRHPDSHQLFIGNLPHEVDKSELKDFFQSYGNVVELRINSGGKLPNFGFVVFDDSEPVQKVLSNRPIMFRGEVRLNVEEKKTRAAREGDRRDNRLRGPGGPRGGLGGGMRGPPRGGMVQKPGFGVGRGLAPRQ
Technique: RNA Bind-n-Seq
Molecule type: RNA
Medium: in vitro
Concentration: 1 µM
Notes: whole 134-nt RNA, ends assumed
Added: 150 mM KCl
Relative to: input library
Direction: higher = stronger binding
Oligonucleotide | log2 enrichment
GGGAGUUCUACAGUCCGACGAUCUGUGGAUGCCCUGCUGAAGAAGUCUGAGGCCCAGCAUGAACAGCCGGAAGAUGGAUGCCCCUUUGGUGCCCUGACGCAGCGCCUCCUGCAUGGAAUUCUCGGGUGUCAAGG | -0.136
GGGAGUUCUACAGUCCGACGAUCCAAGUCCUGUGCUACACAUCGUAUGUACCGAAUCGGAAAAAGGAAAGGAAAAAGGAAAGUAUUAUGUUACGCCGUUCGGAUCUGCACUUCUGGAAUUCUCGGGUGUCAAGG | -1.86
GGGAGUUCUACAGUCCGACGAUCUCCUGUGCUACACAUCGUAUGUACCGAAUCGGGUUUUUUGGUUUUUUGGGUUUUUUGGGGAAAGUAUUAUGUUACGCCGUUCGGAUCUGCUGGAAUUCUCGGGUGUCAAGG | -0.938
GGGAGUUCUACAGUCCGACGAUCAAGUCCUGUGCUACACAUCGUAUGUACCGAAUCGGGGAGGGGAAAGGGGAAAGGGGAAAGUAUUAUGUUACGCCGUUCGGAUCUGCACUUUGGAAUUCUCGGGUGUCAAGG | 3.37
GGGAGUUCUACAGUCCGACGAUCUGGCCCUGGGGGCAUGCGGGGAGGAAGAGGUGGCCUCAUGGAUCGUGGUGGUCCCGGUGGAAUGUUCAGAGGUGGCCGUGGUGGAGACAGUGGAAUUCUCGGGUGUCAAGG | 2.17
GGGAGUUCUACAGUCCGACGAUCAAGUCCUGUGCUACACAUCGUAUGUACCGAAUCGGGUUUUUGGGUGGGUUUUUGGGAAAGUAUUAUGUUACGCCGUUCGGAUCUGCACUUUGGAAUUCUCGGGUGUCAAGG | 1.02
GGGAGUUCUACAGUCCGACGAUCUCAAGUCCUGUGCUACACAUCGUAUGUACCGAAUCGGGUUUUUGGGAGGGUGGGAAAGUAUUAUGUUACGCCGUUCGGAUCUGCACUUCCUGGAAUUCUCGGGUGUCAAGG | 1.24
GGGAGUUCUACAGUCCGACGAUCCAAGUCCUGUGCUACACAUCGUAUGUACCGAAUCGGUUUUUGGUUUGGAAAAAGGAAAGUAUUAUGUUACGCCGUUCGGAUCUGCACUUCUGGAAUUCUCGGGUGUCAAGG | -1.91

Study 3
Target: Sal-like protein 4, full length isoform B (SALL4, Homo sapiens, UniProt Q9UJQ4-2, residues 1-616)
Technique: universal PBM
Molecule type: double-stranded DNA, one strand shown
Medium: in vitro
Concentration: not given
Notes: 8-mer, flanks averaged, mean of replicates
Direction: higher = stronger binding
Oligonucleotide | E-score
GCGCGCCC | -0.346
CCCATGAG | -0.113
ACTGGACC | -0.321
AGCACTCA | -0.159
CTGCCTTC | -0.171
ATTGGGTC | -0.0956
ACGAGTGG | -0.0311
CCTGGAAC | -0.152

Other studies, line by line
Target: CCNA1, cyclin fold, Cln2 fusion (human)
Technique: yeast growth competition, sequencing
Medium: yeast
Notes: strong parent motif
Relative to: not given
Direction: higher = stronger binding
Parent: viral docking peptide; TSVRRALFTGGSD
Variant | normalised enrichment score
G11D | 1.32
S12M | 1.19

For quick reference, copied from above (study 1):
Sequence | lacZ reporter activity
SNNDLASLFECPVCFDYVLPPILQCQSGHLVCSNCRPKLTCCPTCRGPLGSIRNLA (SIAH1 RING domain (UniProt Q8IUQ4)) | 2140
B4 (ARIH1 RING domain) | 0
EDVLSKDAGECAICLEELQQGDTIARLPCLCIYHKGCIDEWFEVNRSCPEHPSD (ZNRF2 RING domain (UniProt Q8NHG8)) | 15600
B5 (PJA2 RING domain) | 2180
